# Measurements collected from several papers.
Structure (SMILES),assay,system,setting,unbound fraction
CC(C)CC(=O)OC[C@H]1O[C@@](C#N)(c2ccc3c(N)ncnn23)[C@H](O)[C@@H]1O,plasma protein binding,mouse plasma,0.9 µM,0.137
CC(C)NCC(O)COc1cccc2ccccc12 (centres unmarked),plasma protein binding,human plasma,,0.172
N=C(CC(O)c1cc2c(F)cc(F)cc2c2cc(C(F)(F)F)ccc12)Nc1ccc(F)c(F)c1 (centres unmarked),equilibrium dialysis,diluted human plasma,"100 ng/mL, 24 h, plasma dilution 1:20",0.0027
Cc1nc([C@@](C)(CC2CC2)NC(=O)c2cc(OCC(F)(F)F)c(C3CC3)cn2)no1,equilibrium dialysis,human plasma,,0.0103
O=c1c2cc(Cl)ccc2[nH]c(=S)n1Cc1cccnc1,,human plasma,10 µM,0.013
N=C(CC(O)c1cc2c(F)cc(F)cc2c2cc(C(F)(F)F)ccc12)Nc1ccc(Br)cc1 (centres unmarked),equilibrium dialysis,diluted human plasma,"100 ng/mL, 24 h, plasma dilution 1:20",0.0014
CC(=O)CC(c1ccccc1)c1c(O)c2ccccc2oc1=O (centres unmarked),plasma protein binding,dog plasma,,0.0529
Cc1nonc1Cn1nnc2c(N3CC[C@H](O)C3)nc(C(C)(C)C)nc21,equilibrium dialysis,human plasma,,0.0268
C/C=C1/CN2CC[C@]34C(=C(C(=O)OC)[C@H]1C[C@H]23)Nc1ccccc14,,rat plasma,"1 µM, 6 h",0.18
CC(=O)c1c(C)c2cnc(Nc3ccc(C4CCN(CCS(C)(=O)=O)CC4)cn3)nc2n(C2CCCC2)c1=O,,humans plasma,,0.02
NC(=O)[C@@H]1CC(F)(F)CN1C(=O)c1ccc(N2CC(F)(F)C2)c(OCC2CC2)n1,equilibrium dialysis,mouse plasma,,0.0843

# Some of these lines once more:
Structure (SMILES),assay,system,setting,unbound fraction
N=C(CC(O)c1cc2c(F)cc(F)cc2c2cc(C(F)(F)F)ccc12)Nc1ccc(F)c(F)c1 (centres unmarked),equilibrium dialysis,diluted human plasma,"100 ng/mL, 24 h, plasma dilution 1:20",0.0027
